Measurements collected from several papers.
A part holds a random share of what one study measured.

Series 1
Target: Interferon regulatory factor 7, full length, phosphomimetic (IRF7, Homo sapiens, UniProt Q92985, residues 1-503, S101K/S471D/S472D/S475D/S476D/S477D/S483D/S484D/S487D)
Technique: protein-binding microarray
Molecule type: double-stranded DNA, one strand shown
Medium: in vitro
Concentration: 250 nM
Notes: 60-bp whole probe
Together with: salmon DNA 0.4 mg/ml
Relative to: random background probes
Reading: higher = stronger binding
All sequences stand within: GCCTAGCAC … GTCTTGATTCGCTTGACGCTGCTG
Target sequence (chain): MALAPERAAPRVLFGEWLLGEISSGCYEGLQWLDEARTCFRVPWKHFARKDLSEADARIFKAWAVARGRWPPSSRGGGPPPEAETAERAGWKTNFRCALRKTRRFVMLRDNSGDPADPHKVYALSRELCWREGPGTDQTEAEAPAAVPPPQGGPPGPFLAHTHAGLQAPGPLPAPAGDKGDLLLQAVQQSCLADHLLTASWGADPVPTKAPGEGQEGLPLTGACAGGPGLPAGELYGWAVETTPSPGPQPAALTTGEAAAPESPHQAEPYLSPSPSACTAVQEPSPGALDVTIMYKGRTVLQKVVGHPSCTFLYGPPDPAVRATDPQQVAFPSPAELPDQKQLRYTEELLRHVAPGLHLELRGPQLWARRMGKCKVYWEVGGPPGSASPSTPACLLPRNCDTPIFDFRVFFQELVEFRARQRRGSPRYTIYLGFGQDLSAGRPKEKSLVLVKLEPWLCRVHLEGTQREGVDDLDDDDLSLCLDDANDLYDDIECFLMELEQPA
| Oligonucleotide | log fluorescence [z-score] |
| --- | --- |
| TCATTTTTTTCATTATTACTGTGCTAG | 1.08 |
| GACGGTTTAGGTATCGGGACGTGCTAG | 0.267 |
| CAATTCCTGAAATCTCTTTCCGTGCTA | 1.09 |
| AAATATTTACCTCTCACGCAGTGCTAG | -0.0249 |
| TTAGGTACCGACACTGGGTTAGTGCTA | -0.133 |
| TCATTTCTAAAACTCTTACTGTGCTAG | 1.46 |
| TTAGATTTCAGACTGTATTAGTGCTAG | 0.183 |
| GTTTTTCTCCTATTTAAGACGTGCTAG | 4.4 |
| TTAGATTTCAGTCTAGATTAGTGCTAG | 0.0689 |
| TTAGGCTTCGACACTGGGTTAGTGCTA | -0.592 |
| ACCCGTACTGGGTCTGGATCGTGCTAG | -0.391 |
| TTAGGACTGGGTCTCGATTAGTGCTAG | 0.773 |
| GACGACCTGAGTCTCGAGACGTGCTAG | 0.344 |
| TTAGAAGTGGGGACTGGATTAGTGCTA | -0.665 |

Series 2
Target: Ras GTPase-activating protein-binding protein 1, C-terminal RGG region (G3BP1, Homo sapiens, UniProt Q13283)
Sequence of UniProt Q13283 (whole entry, looked up): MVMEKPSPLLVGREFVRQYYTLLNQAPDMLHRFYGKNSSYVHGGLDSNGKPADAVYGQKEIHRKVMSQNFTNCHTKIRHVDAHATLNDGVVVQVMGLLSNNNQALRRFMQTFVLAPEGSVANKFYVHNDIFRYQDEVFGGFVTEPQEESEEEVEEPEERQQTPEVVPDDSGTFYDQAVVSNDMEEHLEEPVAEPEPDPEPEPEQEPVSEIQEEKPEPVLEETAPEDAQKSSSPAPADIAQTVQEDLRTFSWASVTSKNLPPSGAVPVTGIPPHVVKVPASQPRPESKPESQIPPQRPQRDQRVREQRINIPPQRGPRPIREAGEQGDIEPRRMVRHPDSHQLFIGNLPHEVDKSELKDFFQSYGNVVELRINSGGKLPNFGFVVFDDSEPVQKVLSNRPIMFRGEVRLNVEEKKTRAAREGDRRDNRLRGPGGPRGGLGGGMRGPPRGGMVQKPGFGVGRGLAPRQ
Technique: RNA Bind-n-Seq
Molecule type: RNA
Medium: in vitro
Concentration: 1 µM
Notes: whole 134-nt RNA, ends assumed
Together with: 150 mM KCl
Relative to: input library
Reading: higher = stronger binding
| Oligonucleotide | log2 enrichment |
| --- | --- |
| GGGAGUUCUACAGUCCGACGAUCUAACUUUAGAGGAGGAUCUGAUGGAUAUGGCAGUGGACGUGGAUUUGGGGAUGGCUAUAAUGGGUAUGGAGGAUGACCUGGAGGUGGCAAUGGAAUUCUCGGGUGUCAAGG | -1.26 |
| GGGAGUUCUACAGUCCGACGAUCCUCAAGUCCUGUGCUACACAUCGUAUGUACCGAAUCGGGGAGGGGAGGAGGGGAAAGUAUUAUGUUACGCCGUUCGGAUCUGCACUUCCAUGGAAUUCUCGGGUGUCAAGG | 1.01 |
| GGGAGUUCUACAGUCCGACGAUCUCCUGUGCUACACAUCGUAUGUACCGAAUCGGUUUUUUUGGUUUUUUUGGUUUUUUUGGGAAAGUAUUAUGUUACGCCGUUCGGAUCUGCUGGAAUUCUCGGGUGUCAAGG | -0.628 |
| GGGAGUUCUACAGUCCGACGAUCAGUCCUGUGCUACACAUCGUAUGUACCGAAUCGGGAAAAAGGGAAAAAGGGUUUGGGAAAGUAUUAUGUUACGCCGUUCGGAUCUGCACUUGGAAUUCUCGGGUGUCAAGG | 0.446 |
| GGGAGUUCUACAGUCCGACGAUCUGGCCCUGGUGGCAUGCGGGGAGGAAGAGGUGGCCUCAUAGAUCGUGGUGGUCCCGGUGGAAUGUUCAGAGGUGGCCGUGGUGGAGACAGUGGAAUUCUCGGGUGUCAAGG | 2.29 |
| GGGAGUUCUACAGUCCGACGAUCCAAGUCCUGUGCUACACAUCGUAUGUACCGAAUCGGGAAAGGGAAAGGGAAAGGGGAAAGUAUUAUGUUACGCCGUUCGGAUCUGCACUUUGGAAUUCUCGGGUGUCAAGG | 1.46 |
| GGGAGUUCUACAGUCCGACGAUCCUGUGCUACACAUCGUAUGUACCGAAUCGGGAAAAAAAGGAAAAAAAGGGGAAAAAAAGGGGAAAGUAUUAUGUUACGCCGUUCGGAUCUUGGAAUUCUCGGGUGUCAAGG | -1.02 |
| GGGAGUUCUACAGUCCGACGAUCAAGUCCUGUGCUACACAUCGUAUGUACCGAAUCGGUUUUGGGUUUUGGGGUUUUGGAAAGUAUUAUGUUACGCCGUUCGGAUCUGCACUUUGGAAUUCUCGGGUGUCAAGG | -1.26 |

Series 3
Target: Sal-like protein 4, full length isoform B (SALL4, Homo sapiens, UniProt Q9UJQ4-2, residues 1-616)
Technique: universal PBM
Molecule type: double-stranded DNA, one strand shown
Medium: in vitro
Concentration: not given
Notes: 8-mer, flanks averaged, mean of replicates
Reading: higher = stronger binding
Construct (chain): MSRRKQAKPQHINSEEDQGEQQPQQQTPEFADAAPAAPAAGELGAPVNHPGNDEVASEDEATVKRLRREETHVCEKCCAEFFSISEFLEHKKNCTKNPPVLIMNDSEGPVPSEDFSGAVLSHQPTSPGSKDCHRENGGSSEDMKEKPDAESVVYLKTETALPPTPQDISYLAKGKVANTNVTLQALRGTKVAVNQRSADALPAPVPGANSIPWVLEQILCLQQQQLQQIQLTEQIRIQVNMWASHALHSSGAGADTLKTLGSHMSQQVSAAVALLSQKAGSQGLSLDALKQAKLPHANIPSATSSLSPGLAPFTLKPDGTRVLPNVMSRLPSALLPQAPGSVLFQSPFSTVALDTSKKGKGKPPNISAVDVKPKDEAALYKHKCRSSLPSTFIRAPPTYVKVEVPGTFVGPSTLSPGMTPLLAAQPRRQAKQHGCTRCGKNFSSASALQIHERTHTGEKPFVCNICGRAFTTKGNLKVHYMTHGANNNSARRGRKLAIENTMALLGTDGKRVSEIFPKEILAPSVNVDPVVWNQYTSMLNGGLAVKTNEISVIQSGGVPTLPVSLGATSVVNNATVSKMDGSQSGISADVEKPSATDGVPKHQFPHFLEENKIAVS
| Oligonucleotide | E-score |
| --- | --- |
| CTCTTGTC | -0.00498 |
| ACAGGATA | 0.225 |
| ACCCGCAT | -0.108 |
| GCTGATCC | -0.355 |
| ATAGAAGG | -0.0284 |
| CGATGGCG | -0.283 |
| ACCTAAGG | -0.216 |
| ATTGTCAG | 0.052 |
| GGTTCAGA | -0.0408 |
| AGTGATGG | -0.00924 |
| GGGCCCCC | -0.457 |
| CGCGGACA | -0.0663 |

Single results of other studies
| Molecule | target | test | test system | setting | scale | quantity | result |
| --- | --- | --- | --- | --- | --- | --- | --- |
| PhoQ, residues 284 288 289 292 302 303 TNSAEL | PhoP, residues 12 14 15 18 19 SYFRT (Escherichia coli, UniProt P23836) | Sort-seq, refers to: YFP reporter | E. coli | PhoQ-PhoP variant library, together with: 10 µM Mg2+ | relative to: high Mg2+ state, higher = stronger signaling | fold induction | 1.09 |

A few entries again (series 1):
| Oligonucleotide | log fluorescence [z-score] |
| --- | --- |
| GACGACCTGAGTCTCGAGACGTGCTAG | 0.344 |
| CAATTCCTGAAATCTCTTTCCGTGCTA | 1.09 |
| AAATATTTACCTCTCACGCAGTGCTAG | -0.0249 |
| ACCCGTACTGGGTCTGGATCGTGCTAG | -0.391 |
